# Measured values gathered from unrelated publications.
# Numbered parts are unrelated; each lists some results of a single study.

# Series 1
# Target: RNA binding protein fox-1 homolog 2, RRM domain, GST-SBP tag (RBFOX2, Homo sapiens, UniProt O43251-10, residues 100-194)
# Technique: RNA Bind-n-Seq
# Form: RNA
# Matrix: in vitro
# Concentration: 365 nM
# Notes: natural RNA segment, single round, ends assumed
# Baseline: no-protein control
# Reading: higher = stronger binding
# Shared flanks, not repeated: GGGAGUUCUACAGUCCGACGAUC … UGGAAUUCUCGGGUGCCAA
# Residues (chain): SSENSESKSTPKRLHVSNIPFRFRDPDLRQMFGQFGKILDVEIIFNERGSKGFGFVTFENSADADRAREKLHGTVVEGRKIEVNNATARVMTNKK
Strand,RBNS enrichment (R)
AAGCCUUUAUGCCUAUGAGAACUCCAUAGCUGGGUCUCACCACUAAUAAACAGACCUGCACCUCUGGAAGGAUCCACUGUGUGUCUGGUACCACACUGGGCCUUUCAAAG,0.368
AAGGCAUACAGGAGGGGGCCCACUGAUCUUUGUCAGAUGGCCUGCAGGCACUCUGCAGAGGAUGGAAGAGGAGACCCCUGUUCUGGGCUUAUUUAUUAAUCUUGAUUUAA,0.424
AAUGCCCACCCCUACUGUGGCCACAUCAUGCCCAGUGUCCCCCCAGGUAGGAGCAGAUACAGUGCAGACCAGGCCCCUCAGUCCUCAUGGUCAAGUCCUUUUGUUGCUCU,0.293
CUGGCUCCGCUGACCUACGAUAAUUAUACGACGGAGACCUACGCAAGCGACCUGCUGCCUUCCUUCCCACUGCUUGUCUUCAGUGUGCCCGGCUGGGCAGGGGUGCGGUG,0.456
UACAAGGUUGUGAGGCCCUCUCCCCCCCAACUUUGUUUAAGGCAUUUUGGUUUUUUAAAAUCUGUACAGUAAAAGCAACUUUUUCUGUCAAAUAAAAAUGAGAAAUGCAG,0.335
GAAUGUCUUUAUUUUUAAUACCAACAUCAGCAUAAAUCUAUUUUUGCUAGUAGAUCAAAGCUAUUUUCACACGCUCUGUUUUCUAUCUUGUAUCGAUCCUGCGAAUCAGU,0.406
AACAAUUGUUUUGAGAGAGAUGGCUGGUCAUGCCACAGCUGCUGGGGACUCCGCCUACUCCAGCCCUCUUGGGACACACUGUGGGAUUUGUGGCCCUUCCCCAGAGGAAU,0.55
GACCUAGAGCCAGGAGAAACCAGCUAAAGACCUGCAGGCUGCACCCACCUCCUCCCCUUCCUACCCCCUAGGAUGCUAUUCCCUUGGGCUGUGGUGGAAAAAUGAGGGCU,0.595
AGUGCCUAGAACUCCCGUGGUGGUCCUGAGCAGAGAGGAGGAUGUCCUCCUGCCUGCCUGAAGGUCUCCCAUGAAAACACUGCUGAACUGUGUUGACACUCAUGACCCUU,0.259

# Series 2
# Target: Interferon regulatory factor 5, full length, phosphomimetic (IRF5, Homo sapiens, UniProt Q13568-2, residues 1-514, K96S/S451D/S453D/S456D/S462D)
# Technique: protein-binding microarray
# Form: double-stranded DNA, one strand shown
# Matrix: in vitro
# Concentration: 250 nM
# Notes: 60-bp whole probe
# Together with: salmon DNA 0.4 mg/ml
# Baseline: random background probes
# Reading: higher = stronger binding
# Shared flanks, not repeated: GCCTAGCAC … GTCTTGATTCGCTTGACGCTGCTG
Strand,log fluorescence
TTAGAGTTCGGGTTTCGATTAGTGCTA,6.34 z-score
GACGGTTTCGGTCTGGGGACGTGCTAG,9.99 z-score
GACGGTTTACTTATCCTGACGTGCTAG,-0.00974 z-score
TTAGGTCTCGGTCTCGGTTAGTGCTAG,1.06 z-score
AGTTCTCTAGAAATTCCCACGGTGCTA,0.0863 z-score
TTAGATATCGGGACTGGATTAGTGCTA,1.23 z-score

# Series 3
# Target: RING finger protein unkempt homolog, zinc fingers 1-6, GST-SBP tag (UNK, Homo sapiens, UniProt Q9C0B0, residues 30-357)
# Chain of UniProt Q9C0B0 (30-357, looked up): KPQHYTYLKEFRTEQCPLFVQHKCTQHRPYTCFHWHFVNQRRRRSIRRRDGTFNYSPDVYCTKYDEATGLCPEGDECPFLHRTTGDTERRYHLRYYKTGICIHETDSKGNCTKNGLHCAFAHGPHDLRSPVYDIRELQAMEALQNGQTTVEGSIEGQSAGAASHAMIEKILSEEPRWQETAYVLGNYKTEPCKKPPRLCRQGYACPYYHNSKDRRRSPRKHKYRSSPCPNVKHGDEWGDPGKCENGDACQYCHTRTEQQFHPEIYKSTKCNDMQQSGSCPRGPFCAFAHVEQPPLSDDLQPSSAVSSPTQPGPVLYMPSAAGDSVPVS
# Technique: RNA Bind-n-Seq
# Form: RNA
# Matrix: in vitro
# Concentration: not given
# Notes: RNA with constant flanks, human-mouse chimeric sites, ends assumed
# Baseline: input RNA pool
# Reading: higher = stronger binding
# Shared flanks, not repeated: GGGAGUUCUACAGUCCGACGAUC … CAACAGAGGAUUGAGCAUCA
Strand,bound/input enrichment [ratio]
AGUGUGCAGGAAUUCAUGACCUUUACAAGUCAACUGAUUGUGGAGCGCUCGGGGAAAGGCAGCAGAGCUUCUGUCAAAGAACAAGAGUAUCUUUGCCAUGUCUACGUCCGGAAUGAUAGU,0.178
AAAGAUCUACUGAGGCAAGGCAGCAAAUUUAGGAGAGACAUUUCAACACUAUUAAUAGAGUUAGGAUUCCAAAUUAAAAAGAAAACUAAGACAUUAUACAUCAACAAAGCCAAUGUGUGG,7.28
UUCUAGUAUGAUGGUGAUAUUGGCAAUUAUUAUUAUGGCCAGGGUCAUCCCAUGAAGCCUCAUAGAAUCCGGAUGACCCAUAACUUGCUGCUAAAUUAUGGUUUAUACCGAAAAAUGGAA,0.252
UCCCAAAUCCAGCAGCUAGAAGGAGCCUUGAGACAAACACUCCACACACAGGGAAGGCGAUAACAUUGUACAUUGGUUUACAUUUUUCUCCUUGAAUUUUUCUAGGGGAGGUCAUAGUGC,0.7
GUAAUGGACGUCAACACUGCUUUACAAGAGGUGCUGAAGACCGCCCUCAUCCACGAUGGCCUAGCACGUGGCAUACGCGAAGCUGCCAAAGCCUUAGACAAGCGCCAAGCCCAUCUGUGU,0.288

# Further values, each from its own experiment
Molecule,target,test,system,conditions,scale,measurement,value
"PhoQ, residues 284 288 289 292 302 303 SSCCRF","PhoP, residues 12 14 15 18 19 NQGLL (Escherichia coli, UniProt P23836)","Sort-seq, measured: YFP reporter",E. coli,"PhoQ-PhoP variant library, together with: 10 µM Mg2+","baseline: high Mg2+ state, higher = stronger signaling",fold induction,12.7

# A few entries again (series 1):
Strand,RBNS enrichment (R)
GACCUAGAGCCAGGAGAAACCAGCUAAAGACCUGCAGGCUGCACCCACCUCCUCCCCUUCCUACCCCCUAGGAUGCUAUUCCCUUGGGCUGUGGUGGAAAAAUGAGGGCU,0.595
AGUGCCUAGAACUCCCGUGGUGGUCCUGAGCAGAGAGGAGGAUGUCCUCCUGCCUGCCUGAAGGUCUCCCAUGAAAACACUGCUGAACUGUGUUGACACUCAUGACCCUU,0.259
